Experimental data collected from several papers.
Each numbered part is a random draw from the data of one study; scales do not carry over between parts. Substitutions count along the parent as printed.

Sample 1 — method: protein binding microarray; form: double-stranded DNA, one strand shown; sample: in vitro; tested at: not given; reference: not given; direction: higher = stronger binding
Target: Histone acetyltransferase KAT6A, winged helix 2, GST fusion (KAT6A, Homo sapiens, UniProt Q92794, residues 85-181)
Notes: 8-mer, flanks averaged, mean of 2 arrays, mostly near background
Residues (chain): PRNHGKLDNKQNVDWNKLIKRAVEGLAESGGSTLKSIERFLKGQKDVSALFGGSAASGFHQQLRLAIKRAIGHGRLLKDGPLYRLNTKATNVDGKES
Oligonucleotide | E-score
CCTATGAC | -0.279
ACACTCTA | -0.0143
GATGTACC | -0.019
CTGACAGA | -0.00987
CCATCCTC | -0.0202
ACAGTATC | -0.11
CCATTAGC | -0.0776
CAACCAGC | 0.0928
GGTCTGTA | -0.0572
CATCCATC | -0.226
AATCCCTC | 0.0822

Sample 2 — target: CCNA1, cyclin fold, Cln2 fusion (human); method: yeast growth competition, sequencing; sample: yeast; notes: weak parent motif; reference: not given; direction: higher = stronger binding
Starting sequence: BRCA2 docking peptide (human); PSIKRNLLNEFDR
Substitution | normalised enrichment score
D12P | 0.614
R5M | 0.457
N6S | 0.667
K4P | 0.0675
D12L | 0.0892
K4A | 0.38
S2R | 0.32
N6I | -0.0162
E10V | 0.077
R5A L7A | 0.158
N6H | 0.598

Sample 3 — method: protein-binding microarray; form: double-stranded DNA, one strand shown; sample: in vitro; tested at: 2200 nM top; notes: 60-bp whole probe; added: salmon DNA 0.4 mg/ml; reference: random background probes; direction: higher = stronger binding; shared flanks, not repeated: GCCTAGCAC … GTCTTGATTCGCTTGACGCTGCTG
Target: Interferon regulatory factor 7, full length, phosphomimetic (IRF7, Homo sapiens, UniProt Q92985, residues 1-503, S471D/S472D/S475D/S476D/S477D/S483D/S484D/S487D)
Construct (chain): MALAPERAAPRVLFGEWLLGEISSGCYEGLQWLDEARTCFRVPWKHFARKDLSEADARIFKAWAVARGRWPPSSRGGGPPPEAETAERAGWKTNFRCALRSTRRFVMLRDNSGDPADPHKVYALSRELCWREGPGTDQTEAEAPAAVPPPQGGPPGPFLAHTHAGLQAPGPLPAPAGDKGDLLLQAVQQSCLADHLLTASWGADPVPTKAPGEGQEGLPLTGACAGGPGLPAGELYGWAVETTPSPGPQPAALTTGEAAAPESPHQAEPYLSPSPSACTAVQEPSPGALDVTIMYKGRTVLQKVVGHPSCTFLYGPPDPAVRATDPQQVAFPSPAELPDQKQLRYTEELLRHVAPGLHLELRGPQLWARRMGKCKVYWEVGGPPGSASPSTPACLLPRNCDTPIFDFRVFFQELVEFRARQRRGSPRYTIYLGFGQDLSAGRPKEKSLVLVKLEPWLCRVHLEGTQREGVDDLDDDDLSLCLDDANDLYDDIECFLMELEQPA
Oligonucleotide | fitted relative affinity [z-score]
ATCGTAAGCAAAAATGATTGGTGCTAG | -0.494
TTGGGACTGGGTATCGGTTAGTGCTAG | -0.507
TTATGACTGGGACTGGGTTAGTGCTAG | -0.435
GACGGTTTCAGGTATCGGGACGTGCTA | 2.41
GGTTGTTTCTAATATTCTGCTGTGCTA | 1.22
TTAGGTTTCGCTTTCGGTTAGTGCTAG | 16.2
TCAGTTCTTTTTTTCAAACTGTGCTAG | 1.42

Single results of other studies
Molecule | target | assay | test system | conditions | how to read | quantity | value
PhoQ, residues 284 288 289 292 302 303 TASMAF | PhoP, residues 12 14 15 18 19 TTLRV (Escherichia coli, UniProt P23836) | Sort-seq, item: YFP reporter | E. coli | PhoQ-PhoP variant library, added: 10 µM Mg2+ | reference: high Mg2+ state, higher = stronger signaling | fold induction | 3.69

A few entries again (sample 1):
Oligonucleotide | E-score
ACAGTATC | -0.11
CCATTAGC | -0.0776
CAACCAGC | 0.0928
